Measurements from different studies.
Values joined by “and” are separate records of one study, mostly repeats; a detail may differ. Numbers after ± are the reported error.

SMILES	target	assay	system	setting	how to read	quantity	value
CN(C1COC1)C(C)(C)/C=C(\C#N)C(=O)N1CCC[C@H]1Cn1nc(-c2ccc(Oc3ccccc3)cc2F)c2c(N)ncnc21	BTK (Homo sapiens, UniProt Q06187, C481S)	autophosphorylation	HEK293		reference: C481S mutant over wild type	potency ratio	> 50 fold
CC[C@H](C)[C@H](NC(C)=O)C(=O)N[C@H]1CSSC[C@@H](C(=O)N[C@H](C(N)=O)[C@@H](C)O)NC(=O)[C@H](CCCNC(=N)N)NC(=O)[C@H](Cc2c[nH]cn2)NC(=O)[C@H](C)NC(=O)CNC(=O)[C@H](Cc2c[nH]c3ccccc23)NC(=O)[C@H](CC(=O)O)NC(=O)[C@H](CCC(N)=O)NC(=O)[C@H](Cc2ccc(O)cc2)NC(=O)[C@H](C(C)C)NC1=O	Complement C3, C3b fragment (Homo sapiens, UniProt P01024)	SPR		pH 7.4, 25 °C		kon	410000 ± 220000 M⁻¹ s⁻¹
CC1(C)CCN(Cc2ccc(C(=O)NC[C@]3(O)CCCN(c4cc(NCc5ccccc5)ncn4)C3)c(O)c2)CC1	Histone-lysine N-methyltransferase 2B, complex (KMT2B, Homo sapiens, UniProt Q9UMN6)	radiometric		10 µM, added: 1 µM SAM		remaining activity	89% and 88%
O=C(COCc1ccccc1)N[C@@H](Cc1cn(CCNC(=O)c2ccc(S[C@@H]3O[C@H](CO)[C@H](O)[C@H](O)[C@H]3O)cc2)nn1)C(=O)NCCO	lecA (Pseudomonas aeruginosa, UniProt Q05097)	binding, isothermal titration calorimetry		25 °C		ΔH	-12 kcal/mol
N=C(N)NC(N)=S	Serine/threonine-protein phosphatase PP1-beta catalytic subunit, holoenzyme with MYPT1 (PPP1CB, Sus scrofa, UniProt P61292)			10 mM		MLCP inhibition	no inhibition
CSCC[C@H](NC(=O)[C@H](CO)NC(=O)[C@@H](NC(=O)[C@H](CCC(N)=O)NC(=O)[C@@H](CCCNC(=N)N)NC(=O)[C@@H](CCCNC(=N)N)NC(=O)[C@@H](CCCCN)NC(=O)[C@@H](CCCNC(=N)N)NC(C)=O)[C@@H](C)O)C(=O)N[C@H](C(=O)N[C@@H](CC(=O)O)C(=O)N[C@@H](Cc1ccccc1)C(=O)N[C@@H](Cc1ccc(O)cc1)C(=O)N[C@@H](Cc1c[nH]cn1)C(=O)N[C@@H](CO)C(=O)N[C@H](CCCCN)C(=O)N[C@H](CCCNC(=N)N)C(=O)N[C@H](CCCNC(=N)N)C(N)=O)[C@@H](C)O	PCNA (Homo sapiens, UniProt P12004)	binding, isothermal titration calorimetry		pH 7.4, 25 °C, 100 mM NaCl, added: p21 peptide		entropic term −TΔS	8.37 ± 0.239 kcal/mol
Fc1ccc(Nc2nc(NC3CCCCC3)c3ccccc3n2)cc1F	Beta-2 adrenergic receptor, with Gs (ADRB2, Homo sapiens, UniProt P07550)		reconstituted receptor in bicelles	10 µM, added: isoprenaline 1 µM		Gs activation	no effect
O[C@@H]1[C@@H](O)[C@H](O[C@@H]2OC[C@@H](O)[C@H](O)[C@H]2O)C[C@H]2O[C@@H]12	endo-1,4-beta-xylanase (Aspergillus aculeatus, UniProt A0A1L9WG58)	covalent inhibitor		pH 5.0, added: 4MU-β-D-xylobioside		kinact	0.197 s⁻¹
CNc1ccccc1C(=O)O[C@H]1C[C@H](n2cnc3c(N)ncnc32)O[C@@H]1COP(=O)(O)OP(=O)(O)O	Unconventional myosin-Va (Gallus gallus, UniProt Q02440, D297C/G292C/I296C/S293C/V295G)	stopped-flow FRET		25 °C, added: EDTA 4 mM		dissociation rate constant	108.9 ± 0.8 s⁻¹
CSCC[C@H](NC(C)=O)C(=O)NCC(=O)NCC(=O)N[C@@H](CCC(=O)O)C(=O)N[C@@H](CC(C)C)C(=O)N[C@H](C(=O)N[C@H](C(=O)NCC(=O)N[C@@H](CC(C)C)C(=O)NCC(=O)N[C@@H](C)C(=O)N[C@@H](CC(C)C)C(=O)N[C@@H](CCCNC(=N)N)C(=O)N[C@@H](CCCNC(=N)N)C(=O)N[C@@H](CCCNC(=N)N)C(=O)N[C@@H](CCCCN)C(=O)N[C@@H](CCCNC(=N)N)C(=O)N[C@@H](CC(C)C)C(=O)N[C@@H](CC(C)C)C(=O)N[C@@H](CCC(=O)O)C(=O)N[C@@H](CCC(N)=O)C(=O)N[C@@H](CCC(=O)O)C(=O)N[C@@H](CCCCN)C(=O)N[C@@H](CCCNC(=N)N)C(N)=O)[C@@H](C)O)C(C)C	Kcnma1 (Mus musculus, UniProt Q08460)	ion current, blocker, whole-cell patch clamp		250 µM, +50 mV after DCEBIO washout		block time constant	28 ms

Excerpt of the above:
SMILES	target	assay	system	setting	how to read	quantity	value
CSCC[C@H](NC(C)=O)C(=O)NCC(=O)NCC(=O)N[C@@H](CCC(=O)O)C(=O)N[C@@H](CC(C)C)C(=O)N[C@H](C(=O)N[C@H](C(=O)NCC(=O)N[C@@H](CC(C)C)C(=O)NCC(=O)N[C@@H](C)C(=O)N[C@@H](CC(C)C)C(=O)N[C@@H](CCCNC(=N)N)C(=O)N[C@@H](CCCNC(=N)N)C(=O)N[C@@H](CCCNC(=N)N)C(=O)N[C@@H](CCCCN)C(=O)N[C@@H](CCCNC(=N)N)C(=O)N[C@@H](CC(C)C)C(=O)N[C@@H](CC(C)C)C(=O)N[C@@H](CCC(=O)O)C(=O)N[C@@H](CCC(N)=O)C(=O)N[C@@H](CCC(=O)O)C(=O)N[C@@H](CCCCN)C(=O)N[C@@H](CCCNC(=N)N)C(N)=O)[C@@H](C)O)C(C)C	Kcnma1 (Mus musculus, UniProt Q08460)	ion current, blocker, whole-cell patch clamp		250 µM, +50 mV after DCEBIO washout		block time constant	28 ms
